Measurements from different studies.
A part holds a random share of what one study measured.

Sample 1
Target: Interferon regulatory factor 5, full length, phosphomimetic (IRF5, Homo sapiens, UniProt Q13568-2, residues 1-514, K96S/S451D/S453D/S456D/S462D)
Technique: protein-binding microarray
Molecule type: double-stranded DNA, one strand shown
Matrix: in vitro
Tested at: 250 nM
Notes: 60-bp whole probe
With: salmon DNA 0.4 mg/ml
Relative to: random background probes
Reading: higher = stronger binding
Shared flanks, not repeated: GCCTAGCAC … GTCTTGATTCGCTTGACGCTGCTG
Oligonucleotide	log fluorescence
GCGATTTGAGGAGCTCGCTCGTGCTAG	-0.782 z-score
GACGAACTGGGGTAGCGAGACGTGCTA	-0.464 z-score
GACGATTACGGGACTGGAGACGTGCTA	-0.22 z-score
TTAGGTCCCGGACTGGGTTAGTGCTAG	-0.806 z-score
GACGATTTCAGTTTCAAGACGTGCTAG	2.64 z-score

Sample 2
Target: Histone acetyltransferase KAT6A, winged helix 2, GST fusion (KAT6A, Homo sapiens, UniProt Q92794, residues 85-181)
Technique: protein binding microarray
Molecule type: double-stranded DNA, one strand shown
Matrix: in vitro
Tested at: not given
Notes: 8-mer, flanks averaged, mean of 2 arrays, mostly near background
Relative to: not given
Reading: higher = stronger binding
Residues (chain): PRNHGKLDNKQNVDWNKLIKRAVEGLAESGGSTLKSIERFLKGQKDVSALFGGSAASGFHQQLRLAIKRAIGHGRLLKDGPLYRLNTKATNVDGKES
Oligonucleotide	E-score
CGTGCACG	-0.0801
AGCCCTAG	-0.0648
CCCAGGTC	-0.106
CGTCTGAA	0.044

Sample 3
Target: Sal-like protein 4, full length isoform A (SALL4, Homo sapiens, UniProt Q9UJQ4, residues 1-1053)
UniProt Q9UJQ4, sequence (whole entry, looked up): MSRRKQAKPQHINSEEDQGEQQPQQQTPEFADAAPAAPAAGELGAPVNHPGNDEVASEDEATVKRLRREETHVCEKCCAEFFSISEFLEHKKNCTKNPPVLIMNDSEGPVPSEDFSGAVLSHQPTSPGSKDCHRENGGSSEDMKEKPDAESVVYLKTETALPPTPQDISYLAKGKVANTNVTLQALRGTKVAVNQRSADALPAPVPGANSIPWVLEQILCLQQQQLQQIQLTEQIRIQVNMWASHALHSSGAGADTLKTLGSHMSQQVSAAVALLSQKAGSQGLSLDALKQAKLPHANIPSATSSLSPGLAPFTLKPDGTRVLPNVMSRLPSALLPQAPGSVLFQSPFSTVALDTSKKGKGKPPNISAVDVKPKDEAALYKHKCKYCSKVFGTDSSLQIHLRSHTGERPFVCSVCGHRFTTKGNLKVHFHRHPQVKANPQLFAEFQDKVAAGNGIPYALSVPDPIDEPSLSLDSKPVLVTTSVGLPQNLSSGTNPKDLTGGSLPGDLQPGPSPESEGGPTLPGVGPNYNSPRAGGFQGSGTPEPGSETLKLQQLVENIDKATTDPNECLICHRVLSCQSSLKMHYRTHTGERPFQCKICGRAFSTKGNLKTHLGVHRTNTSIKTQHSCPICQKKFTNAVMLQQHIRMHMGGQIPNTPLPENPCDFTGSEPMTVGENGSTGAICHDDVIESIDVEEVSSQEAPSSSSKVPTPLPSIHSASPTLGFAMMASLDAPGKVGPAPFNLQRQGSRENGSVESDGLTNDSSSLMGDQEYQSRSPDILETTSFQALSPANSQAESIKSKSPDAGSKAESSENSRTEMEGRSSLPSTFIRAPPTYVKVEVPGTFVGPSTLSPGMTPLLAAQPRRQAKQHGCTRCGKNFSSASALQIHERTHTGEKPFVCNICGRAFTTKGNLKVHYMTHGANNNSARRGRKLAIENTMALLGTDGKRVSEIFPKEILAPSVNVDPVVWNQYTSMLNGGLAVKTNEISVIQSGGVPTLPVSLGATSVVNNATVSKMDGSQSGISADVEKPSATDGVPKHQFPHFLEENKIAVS
Technique: universal PBM
Molecule type: double-stranded DNA, one strand shown
Matrix: in vitro
Tested at: 600 nM
Notes: 8-mer, flanks averaged, mean of replicates
Reading: higher = stronger binding
Oligonucleotide	E-score
CCGACAAG	-0.0808
CACCTATG	-0.0477
GTAGGAAC	0.067
CATTGATC	0.05
GTGGATTA	0.108
ATCAATTG	0.246

Other studies, line by line
Substance	target	test	test system	conditions	scale	quantity	result
PhoQ, residues 284 288 289 292 302 303 ASTSDA	PhoP, residues 12 14 15 18 19 NHFRA (Escherichia coli, UniProt P23836)	Sort-seq, measured: YFP reporter	E. coli	PhoQ-PhoP variant library, with: 10 µM Mg2+	relative to: high Mg2+ state, higher = stronger signaling	fold induction	8.05
